Experimental data of several laboratories.
Each numbered part is a random draw from the data of one study; scales do not carry over between parts. Positions count from the first letter of the parent shown.

Study 1 — method: RNA Bind-n-Seq; form: RNA; matrix: in vitro; tested at: 365 nM; baseline: no-protein control; direction: higher = stronger binding; measurement: RBNS enrichment (R)
Target: RNA binding protein fox-1 homolog 2, RRM domain, GST-SBP tag (RBFOX2, Homo sapiens, UniProt O43251-10, residues 100-194)
Notes: natural RNA segment, single round, ends assumed
All sequences stand within: GGGAGUUCUACAGUCCGACGAUC … UGGAAUUCUCGGGUGCCAA
Residues (chain): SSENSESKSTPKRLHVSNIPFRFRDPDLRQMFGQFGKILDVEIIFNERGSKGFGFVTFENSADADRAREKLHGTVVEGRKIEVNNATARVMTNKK
GGGCCUGCUGGAGUUCCGGCCUGGGCACCAGCAUUUGGCAGCACGCAGGCGGGGCAGUAUGUGAUGGACUGGGGAGCACAGGUGUCUGCCUAGAUCCACGUGUGGCCUCC: 1.33
CCACCACAACCAUGAGCCUUUCUUCAGUUUGCUCGGGUUGACGCGGGCUGCAGAGCAGCGUCUAGUGGACAUUCCGAGGCCAGCUCUUGGGACUGUGUAGCCUCUGCCUC: 0.274
UGGAGAUAAACAGCUCCCAUCCCUGGGUAAUGGAUGGUAAGAUGAUGGAGAUUCCUAAGAUUGGUGGAGUUGGGCAAUGCAUAGCCAUCUGACUCCUUCAGGGUGCUCUU: 0.835
CAGAAGAGUAGAACAUACUGGCAGAGUUUUACAUUAGGAUAUUGCUGUCUUUUCUACGAUAGAGAAUCUUUAUUUGUAAGGAAUGUUUCAGGCCUAGACAUACAUGAAAC: 0.358
CCUCCACCCCUGACCCCCAUCCUCUUUUCCUACCUCUCUGUUUGGUUUAGAAAUUGCUCAAUAAGUCAUUUGGGGUUUGGCAUCCUGCCCAGCCACUUCCCAAACAUGAA: 0.674
GUUUCUUUUGAUAUUCGUGGAGGUGAUUGUCAGUGUUUAAACAGGACUACUUUCUCCACUAUGAAGAUGACUUGGAAAUCGCAACAUCAUGGUACAUUGCUAAGUCCAUG: 0.309
CAUUAUAUAGCAGAAAUAACUACUGUAUAAUUCUUGGGGUUAACCAUCUUUAGUUAAUGGAAUUUUAAUUUAAAUGAAGCUUUGCUAAUUUUAAGUGGUAAGCAUUUUGC: 0.355
AGUAUUCUGUCAUCGAAGAGACCAGCUCGGACACAGAUGAAAGCAUCAUCACCUGCUCCACUCUCAAUAUGGCUUUUAUCAGCAUCUUUUCUCUGUAGCUCCAGGGGAAU: 0.892

Study 2 — target: CEBPA, bZIP domain (human); method: DHFR protein complementation; matrix: yeast; baseline: wild-type JUN-FOS pair; direction: higher = stronger binding; measurement: binding fitness
Notes: single substitutions, most at no-binding floor
Parent: JUN, bZIP domain (human); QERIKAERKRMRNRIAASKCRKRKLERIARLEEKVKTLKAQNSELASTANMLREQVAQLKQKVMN; partner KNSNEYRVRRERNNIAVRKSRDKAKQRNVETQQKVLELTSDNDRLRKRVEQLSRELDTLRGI
S43R: -1.38 natural log
R30K: -1.49 natural log
A57R: -1.27 natural log
E54W: -1.46 natural log
A40C: -1.48 natural log
L38W: -1.49 natural log
E33L: -1.47 natural log

Study 3 — target: CCNB3, cyclin fold, Cln2 fusion (human); method: yeast growth competition, sequencing; matrix: yeast; notes: weak parent motif; baseline: not given; direction: higher = stronger binding; measurement: normalised enrichment score
Parent: CDKN1A docking peptide (human); SKACRRLFGPVDS
SKACRRYFGPVDS [L7Y]: 0.287
SKACRRLFGPADS [V11A]: 0.821
SKACRRLFGPIDS [V11I]: 0.508
SKACRRLFGDVDS [P10D]: 0.279
SKACRLLFGPVDS [R6L]: 0.793
SKACRRLGGPVDS [F8G]: 0.127
SKACRRLFGPVSS [D12S]: 0.453
SKACRRLFYPVDS [G9Y]: 0.56

Mixed results
PhoQ, residues 284 288 289 292 302 303 SCEHLI — fold induction (PhoP, residues 12 14 15 18 19 QYCSL (Escherichia coli, UniProt P23836); Sort-seq, refers to: YFP reporter; E. coli; PhoQ-PhoP variant library, together with: 10 µM Mg2+; baseline: high Mg2+ state, higher = stronger signaling): 17.7

Repeated from above (study 3):
SKACRRLFGPADS [V11A]: 0.821
SKACRRLFGDVDS [P10D]: 0.279
SKACRRLFYPVDS [G9Y]: 0.56
